# Published values of several laboratories.
# Compare with care: the assays were run in different laboratories. ± gives the spread as reported.
SMILES,test,system,conditions,tissue uptake
Cc1cc(C)n(CCN(CCN)CCCCCCNC(=O)[C@@H](N)Cc2c[nH]cn2)n1.[99Tc+].[C-]#[O+].[C-]#[O+].[C-]#[O+],,"BALB/c nude mice, MCF7 xenograft, muscle","intravenous, 4 h",0.14 ± 0.01 %IA/g
O=C([O-])CN1CCN(CC(=O)[O-])CCN(CC(=O)NC[C@H]2CC[C@H](C(=O)N[C@H](Cc3cnc4ccccc4c3)C(=O)NCCCC[C@H](NC(=O)N[C@@H](CCC(=O)O)C(=O)O)C(=O)O)CC2)CCN(CC(=O)[O-])CC1.[64Cu+2],ex vivo gamma counting,"22Rv1 tumour-bearing mice, muscle","intravenous, 0.74 MBq, 2 h post-injection",1.31 %ID/g
N#C[C@@H]1CCCN1C(=O)CNC(=O)c1ccnc2ccc(OCCCN3CCN(C(=O)CCc4ccc(O)c(CN5CCN6CC(=O)[O][Al-]([18F])([O]C(=O)C5)[O]c5ccc(CCC(=O)N7CCN(CCCOc8ccc9nccc(C(=O)NCC(=O)N%10CCC[C@H]%10C#N)c9c8)CC7)cc5C6)c4)CC3)cc12 (some centres unmarked),,"BALB/c nude mice, U-87 MG tumour, gallbladder",60 min post-injection,106 ± 31.4 %ID/g
O=C(NCC1OC2CCC=CCCC2O1)c1ccc(COCCOCCOCC[18F])cc1 (centres unmarked),,"healthy female BALB/c nude mice, small intestine","intravenous, 7.4 MBq per mouse, 15 min",10.3 ± 1.1 %ID/g
CCCC[C@H](NC(=O)CNC(=O)CNC(=O)[C@H](CCCCNC(=O)[C@H](CC(=O)O)NC(=O)C(C)c1ccc(CC(C)C)cc1)NC(=O)CN1CCN(CC(=O)O)CCN(CC(=O)O)CCN(CC(=O)O)CC1)C(=O)N[C@H]1CC(=O)NCCCC[C@@H](C(N)=O)NC(=O)[C@H](Cc2c[nH]c3ccccc23)NC(=O)[C@H](CCCNC(=N)N)NC(=O)[C@@H](Cc2ccccc2)NC(=O)[C@H](Cc2c[nH]cn2)NC1=O (some centres unmarked) [lutetium-177 labelled],,"C57 mice, tumour-bearing, pancreas","intravenous, 0.037 MBq, 4 h",0.17 ± 0.07 %ID/g
CC(C)C[C@H](NC(=O)[C@@H](CCCCNC(=O)[C@@H](Cc1ccccc1)NC(=O)CCCCCCCNC(=O)CN1CCN(CC(=O)O)CCN(CC(=O)O)CCN(CC(=O)O)CC1)NC(=O)[C@H](Cc1ccc(O)cc1)NC(=O)[C@H](CO)NC(=O)[C@H](Cc1c[nH]c2ccccc12)NC(=O)[C@H](Cc1c[nH]cn1)NC(=O)[C@@H]1CCC(=O)N1)C(=O)N[C@@H](CCCNC(=N)N)C(=O)N1CCC[C@H]1C(=O)NCC(N)=O [indium-111 labelled],biodistribution,"male athymic nude mice, DU-145 prostate cancer xenograft, liver","intravenous, 0.037 MBq, 0.5 h post-injection",1.56 ± 0.22 %ID/g
CCCC[C@H](NC(=O)CCCCCCCNC(=O)CN1CCN(CC(=O)O)CCN(CC(=O)O)CC1)C(=O)N[C@H]1CC(=O)NCCCC[C@@H](C(N)=O)NC(=O)[C@H](Cc2c[nH]c3ccccc23)NC(=O)[C@H](CCCNC(=N)N)NC(=O)[C@@H](Cc2ccccc2)NC(=O)[C@H](Cc2c[nH]cn2)NC1=O [fluorine-18 labelled],,"C57 mice, B16/F10 melanoma, tumor","intravenous, 1 h, together with: NDP-MSH 10 µg",1 ± 0.16 %ID/g
COc1ccc(Nc2nc(Nc3ccc(OCCOCCOCC[18F])cc3)ncc2Br)cc1,,"ICR mice, S180 tumour-bearing, lung","intravenous, 370 kBq, 30 min",4.86 ± 0.3 %ID/g
Cc1cc(C)n(CCN(CCN)CCCCCCNC(=O)[C@@H](N)Cc2c[nH]c3ccccc23)n1.[99Tc+].[C-]#[O+].[C-]#[O+].[C-]#[O+],,"BALB/c nude mice, A549 xenograft, bone","intravenous, 15 min",0.74 ± 0.22 %IA/g
N#C[C@@H]1CCCN1C(=O)CNC(=O)c1ccnc2ccc(OCCCN3CCN(C(=O)CCc4ccc5c(c4)CN4CCN6CC(=O)[O][68Ga-]([O]C(=O)C4)([O]5)[O]c4ccc(CCC(=O)N5CCN(CCCOc7ccc8nccc(C(=O)NCC(=O)N9CCC[C@H]9C#N)c8c7)CC5)cc4C6)CC3)cc12,,"BALB/c nude mice, U-87 MG xenograft, pancreas","1 h, blocking, together with: DOTA-FAPI-04 40 nmol/mouse co-injected",1.45 ± 0.98 %ID/g
O=C(NCC1OC2CCC=CCCC2O1)c1ccc([18F])nc1 (centres unmarked),,"healthy female BALB/c nude mice, bone","intravenous, 7.4 MBq per mouse, 10 min",1.4 ± 0.5 %ID/g
COc1ccc2c(c1)C(C)(C)C(/C=C/C1=C(Oc3ccc(C(=O)NCCCCOc4cc(CN(Cc5ccccn5)Cc5ccccn5)cc(CN(Cc5ccccn5)Cc5ccccn5)c4)cc3)C(=C/C=C3/N(CCCCS(=O)(=O)[O-])c4ccc(OC)cc4C3(C)C)CCC1)=[N+]2CCCCS(=O)(=O)[O-].O=[N+]([O-])[O-].O=[N+]([O-])[O-].[99Tc+].[C-]#[O+].[C-]#[O+].[C-]#[O+].[Zn+2],,"healthy BALB/c mice, adipose",12 h,0.19 %ID/g
CCCC[C@H](NC(=O)COCCOCCNC(=O)CN1CCN(CC(=O)O)CCN(CC(=O)O)CC1)C(=O)N[C@H]1CC(=O)NCCCC[C@@H](C(N)=O)NC(=O)[C@H](Cc2c[nH]c3ccccc23)NC(=O)[C@H](CCCNC(=N)N)NC(=O)[C@@H](Cc2ccccc2)NC(=O)[C@H](Cc2c[nH]cn2)NC1=O [fluorine-18 labelled],,"C57 mice B16-F10 melanoma, stomach","intravenous, 0.37 MBq, 1 h",1.3 ± 0.46 %ID/g
COc1ccc(Nc2nc(Nc3ccc(OCCOCC[18F])cc3)ncc2Br)cc1,,"ICR mice, S180 tumour-bearing, brain","intravenous, 370 kBq, 5 min",2.52 ± 0.44 %ID/g

# For quick reference, copied from above:
SMILES,test,system,conditions,tissue uptake
COc1ccc(Nc2nc(Nc3ccc(OCCOCCOCC[18F])cc3)ncc2Br)cc1,,"ICR mice, S180 tumour-bearing, lung","intravenous, 370 kBq, 30 min",4.86 ± 0.3 %ID/g
O=C(NCC1OC2CCC=CCCC2O1)c1ccc(COCCOCCOCC[18F])cc1 (centres unmarked),,"healthy female BALB/c nude mice, small intestine","intravenous, 7.4 MBq per mouse, 15 min",10.3 ± 1.1 %ID/g
